Measurements pooled from the literature.
Protocols differ between the studies behind these lines.

Compound | organism | assay | test system | conditions | MIC
Cc1ccc2[nH]c3c(c2c1)CCCC3NCCc1ccc(O)cc1 (stereo not shown) | Staphylococcus simulans | broth microdilution | 22 | – | 16 µg/mL
CC1(C)S[C@@H]2[C@H](NC(=O)[C@H](N)c3ccccc3)C(=O)N2[C@H]1C(=O)O | Escherichia coli | broth microdilution | isolate IU 356 A, KPC-3, VIM-1, TEM | together with: clavulanic acid 6 µg/mL | > 200 µg/mL
CCCCCCCCCCCC(=O)C(F)(F)P(=O)(O)O | Streptococcus pneumoniae | – | – | – | > 200 µg/mL
N=C(N)c1ccc(OCCCCCOc2ccc(C(=N)N)cc2)cc1 | Escherichia coli | – | BW25113 mcr-1 | compound alone | > 200 µg/mL
CC1NC(=O)C(C(=O)NC(C(=O)NC2C(=O)N3C2SC(C)(C)C3C(=O)O)c2ccccc2)=C1O (stereo not shown) | Escherichia coli | broth microdilution | isolate IU 356 A, KPC-3, VIM-1, TEM | no clavulanic acid | > 200 µg/mL
N=C(N)NCCC[C@H](NC(=O)[C@H](Cc1c[nH]c2ccccc12)NC(=O)[C@H](CCCNC(=N)N)NC(=O)[C@H](Cc1c[nH]c2ccccc12)NC(=O)[C@H](Cc1c[nH]c2ccccc12)NC(=O)[C@H](Cc1c[nH]c2ccccc12)NC(=O)[C@H](CCCNC(=N)N)NC(=O)[C@H](Cc1c[nH]c2ccccc12)NC(=O)[C@H](CCCNC(=N)N)NC(=O)CN)C(N)=O | Candida albicans | – | CGMCC 2.209 | no added salts | 4 µM
CC1(C)SC2C(NC(=O)C(NC(=O)C3=C(O)C(Cc4ccco4)NC3=O)c3ccccc3)C(=O)N2C1C(=O)O (stereo not shown) | Escherichia coli | broth microdilution | Keio mutant JW5195-1 | 18 h | 6.25 µg/mL
Cc1ccccc1C(=O)NN=Cc1ccc(O)c(Br)c1 | Cryptococcus neoformans | – | – | compound alone, together with: caspofungin | 1 µg/mL
CC1(C)SC2C(NC(=O)C(NC(=O)C3=C(O)C4(CC4)NC3=O)c3ccccc3)C(=O)N2C1C(=O)O (stereo not shown) | Escherichia coli | broth microdilution | isolate IU, CTX-M-14, TEM-1 | together with: clavulanic acid 6 µg/mL | > 200 µg/mL
CC(C)C[C@H](NC(=O)[C@@H](NC(=O)[C@H](CCCNC(=N)N)NC(=O)[C@H](CCC(N)=O)NC(=O)[C@H](Cc1ccccc1)NC(=O)[C@H](Cc1ccc(O)cc1)NC(=O)[C@H](CC(N)=O)NC(=O)[C@H](Cc1c[nH]c2ccccc12)NC(=O)[C@@H](NC(=O)[C@H](CCCNC(=N)N)NC(=O)[C@H](CCCCN)NC(=O)[C@@H](N)Cc1ccccc1)C(C)C)C(C)C)C(=O)N[C@H](C(=O)N[C@@H](CCCCN)C(=O)N[C@@H](CCCCN)C(N)=O)C(C)C | Salmonella typhimurium | broth dilution | SL1344 | – | 25 µM
CC1(C)SC2C(NC(=O)C(NC(=O)C3=C(O)CN(c4ccccc4)C3=O)c3ccccc3)C(=O)N2C1C(=O)O (stereo not shown) | Escherichia coli | broth microdilution | Keio mutant JW0146-2 | 18 h, ferric hydroxamate uptake gene | 50 µg/mL
N=C(N)c1ccc(OCCC(CCOc2ccc(C(=N)N)cc2)c2ccccc2)cc1 (stereo not shown) | Escherichia coli | – | BW25113 mcr-1 | compound alone | > 200 µg/mL
CC[C@H](C)[C@H](NC(=O)[C@H](CCCCN)NC(=O)[C@@H](NC(=O)[C@H](Cc1ccc(O)cc1)NC(=O)[C@H](CCCCN)NC(=O)[C@H](CCCCN)NC(=O)CNC(=O)[C@H](CCCCN)NC(=O)[C@@H](NC(=O)[C@H](C)NC(=O)[C@H](CC(C)C)NC(=O)[C@H](Cc1c[nH]c2ccccc12)NC(=O)CNC(=O)[C@@H](NC(=O)[C@H](Cc1ccccc1)NC(=O)[C@H](CCCCN)NC(=O)[C@H](CC(C)C)NC(=O)[C@H](Cc1ccccc1)NC(=O)[C@H](C)NC(=O)CNC(=O)[C@@H](N)CCSC)C(C)C)[C@@H](C)O)C(C)C)C(=O)N[C@@H](C)C(=O)N[C@@H](Cc1c[nH]c2ccccc12)C(=O)N[C@@H](CC(=O)O)C(=O)N[C@@H](Cc1c[nH]cn1)C(=O)N[C@@H](CCCCN)C(=O)NCC(=O)N[C@H](C(=O)N[C@H](C(=O)N[C@@H](CCSC)C(=O)N[C@@H](CCCCN)C(=O)N[C@@H](Cc1c[nH]c2ccccc12)C(=O)N[C@@H](CC(C)C)C(=O)N[C@@H](CC(N)=O)C(=O)N[C@@H](C)C(=O)NCC(=O)N[C@@H](CCC(N)=O)C(=O)N[C@H](C(=O)N[C@@H](Cc1ccccc1)C(=O)N[C@H](C(=O)N[C@@H](Cc1c[nH]c2ccccc12)C(=O)N[C@H](C(=O)N[C@@H](Cc1ccc(O)cc1)C(=O)N[C@@H](CCC(=O)O)C(=O)N[C@@H](CCC(N)=O)C(=O)N[C@H](C(=O)N[C@@H](CCCCN)C(=O)N[C@@H](CCCCN)C(=O)N[C@@H](CC(C)C)C(=O)N[C@@H](Cc1c[nH]c2ccccc12)C(=O)N[C@H](C(=O)O)[C@@H](C)O)[C@@H](C)CC)C(C)C)[C@@H](C)O)[C@@H](C)O)[C@@H](C)CC)[C@@H](C)O | Streptococcus dysgalactiae | broth microdilution | – | 37 °C | 41.7 µg/mL
CC[C@H](C)[C@H](NC(=O)[C@H](CC(C)C)NC(=O)CNC(=O)[C@H](CCCCN)NC(=O)[C@H](CC(C)C)NC(=O)[C@@H](NC(=O)[C@H](CCCCN)NC(=O)[C@@H](NC(=O)[C@@H](NC(=O)[C@H](CCC(N)=O)NC(=O)[C@H](CC(N)=O)NC(=O)[C@@H](NC(=O)[C@@H](NC(=O)[C@H](CC(=O)O)NC(=O)[C@H](CO)NC(=O)[C@@H](N)CCSC)[C@@H](C)CC)[C@@H](C)CC)[C@@H](C)CC)C(C)C)C(C)C)C(=O)N[C@@H](CC(=O)O)C(=O)N[C@@H](CCCCN)C(=O)N[C@@H](CC(C)C)C(=O)N[C@H](C(=O)N[C@@H](CCCCN)C(=O)N[C@@H](CCCCN)C(=O)O)[C@@H](C)O | Bifidobacterium adolescentis | broth microdilution | DSM 108263 | – | 5.01 µM
CC1(C)SC2C(NC(=O)C(NC(=O)C3=C(O)C(Cc4ccccc4)NC3=O)c3ccccc3)C(=O)N2C1C(=O)O (stereo not shown) | Escherichia coli | broth microdilution | Keio mutant JW0146-2 | 18 h, ferric hydroxamate uptake gene | 12.5 µg/mL
CCCCCC/C=C\CCCCCCCCCC(=O)CP(=O)(O)O | Streptococcus pneumoniae | – | – | – | 200 µg/mL
CC[C@H](C)C[C@H](C)CCCCCCCCC(=O)N[C@H]1C[C@@H](O)[C@@H](NCCN)NC(=O)[C@@H]2[C@@H](O)CCN2C(=O)[C@H]([C@H](O)CCN)NC(=O)[C@H]([C@H](O)[C@@H](O)c2ccc(O)cc2)NC(=O)[C@@H]2C[C@@H](O)CN2C(=O)[C@H]([C@@H](C)O)NC1=O | Candida glabrata | EUCAST broth microdilution | clinical isolate, RPMI 1640 MOPS-buffered 2% glucose | 48 h, pH 7.0, 24 °C | 0.125 µg/mL
N=C(N)NCCC[C@H](NC(=O)CN)C(=O)N[C@@H](Cc1c[nH]c2ccccc12)C(=O)N[C@@H](CCCNC(=N)N)C(=O)N[C@@H](Cc1c[nH]c2ccccc12)C(=O)N[C@@H](Cc1c[nH]c2ccccc12)C(=O)N[C@@H](Cc1c[nH]c2ccccc12)C(=O)N[C@@H](CCCNC(=N)N)C(=O)N[C@@H](Cc1c[nH]c2ccccc12)C(=O)N[C@@H](CCCNC(=N)N)C(=O)N[C@@H](Cc1c[nH]c2ccccc12)C(N)=O | Candida albicans | broth microdilution | CGMCC 2.209, RPMI 1640-MOPS | 48 h, 30 °C | 4 µM
CCCCCCCCCCCCCCCC(=O)NS(=O)(=O)OCC | Streptococcus pneumoniae | – | – | – | 12.5 µg/mL
CC[C@H](C)[C@H](NC(=O)CN)C(=O)NCC(=O)N[C@@H](C)C(=O)N[C@H](C(=O)N[C@@H](CC(C)C)C(=O)N[C@@H](CCCCN)C(=O)N[C@H](C(=O)N[C@@H](CC(C)C)C(=O)N[C@H](C(=O)N[C@H](C(=O)NCC(=O)N[C@@H](CC(C)C)C(=O)N1CCC[C@H]1C(=O)N[C@@H](C)C(=O)N[C@@H](CC(C)C)C(=O)N[C@H](C(=O)N[C@@H](CO)C(=O)N[C@@H](Cc1c[nH]c2ccccc12)C(=O)N[C@H](C(=O)N[C@@H](CCCCN)C(=O)N[C@@H](CCCNC(=N)N)C(=O)N[C@@H](CCCCN)C(=O)N[C@@H](CCCNC(=N)N)C(=O)N[C@@H](CCC(N)=O)C(=O)N[C@@H](CCC(N)=O)C(N)=O)[C@@H](C)CC)[C@@H](C)CC)[C@@H](C)O)[C@@H](C)O)C(C)C)C(C)C | Candida albicans | broth microdilution | 56214, RPMI 1640-MOPS | 48 h, 30 °C | 8 µM
CC(C)C[C@@H]1NC(=O)[C@H](Cc2ccccc2)NC(=O)[C@H](Cc2ccc(O)cc2)NC(=O)[C@H](CC(C)C)NC(=O)[C@H](CCC(=O)O)NC(=O)[C@H](Cc2ccccc2)NC(=O)[C@H](CCCNC(=N)N)NC(=O)[C@H](CCC(N)=O)NC(=O)[C@H](CC(C)C)NC(=O)[C@H](CC(=O)O)NC(=O)[C@@H]2CCCN2C(=O)[C@H](CCCCN)NC(=O)[C@H](C(C)C)NC(=O)[C@H](CC(N)=O)NC(=O)[C@H](Cc2ccc(O)cc2)NC(=O)[C@H]([C@@H](C)O)NC(=O)[C@@H](N)CSSC[C@@H](C(=O)O)NC(=O)[C@H]([C@@H](C)O)NC(=O)[C@H](C(C)C)NC(=O)[C@H]([C@@H](C)O)NC(=O)CNC1=O | Aeromonas hydrophila | broth dilution | – | 24 h | > 40 µM
N=C(N)NCCC[C@H](NC(=O)[C@H](Cc1c[nH]c2ccccc12)NC(=O)[C@H](CCCNC(=N)N)NC(=O)[C@H](Cc1c[nH]c2ccccc12)NC(=O)[C@H](Cc1c[nH]c2ccccc12)NC(=O)[C@H](Cc1c[nH]c2ccccc12)NC(=O)[C@H](CCCNC(=N)N)NC(=O)[C@H](Cc1c[nH]c2ccccc12)NC(=O)[C@@H](N)CCCNC(=N)N)C(N)=O | Candida albicans | – | CGMCC 2.209 | no added salts | 8 µM
Cc1ncc([N+](=O)[O-])n1CCO | Clostridioides difficile | – | – | – | 0.06 to 0.5 µg/mL
CC1(C)SC2C(NC(=O)C(NC(=O)C3=C(O)C(Cc4ccc(O)cc4)NC3=O)c3ccccc3)C(=O)N2C1C(=O)O (stereo not shown) | Escherichia coli | broth microdilution | ATCC 35218, low-level TEM-1 | no clavulanic acid | > 200 µg/mL
CC(C)[C@H](NC(=O)[C@H](CCCNC(=N)N)NC(=O)[C@H](Cc1c[nH]c2ccccc12)NC(=O)[C@H](CCCNC(=N)N)NC(=O)[C@H](Cc1c[nH]c2ccccc12)NC(=O)[C@H](Cc1c[nH]c2ccccc12)NC(=O)[C@H](Cc1c[nH]c2ccccc12)NC(=O)[C@H](CCCNC(=N)N)NC(=O)[C@H](Cc1c[nH]c2ccccc12)NC(=O)[C@H](CCCNC(=N)N)NC(=O)CN)C(N)=O | Candida albicans | broth microdilution | CGMCC 2.209, RPMI 1640-MOPS | 48 h, 30 °C, together with: ZnCl2 8 µM | 8 µM

For quick reference, copied from above:
Compound | organism | assay | test system | conditions | MIC
CC[C@H](C)[C@H](NC(=O)[C@H](CC(C)C)NC(=O)CNC(=O)[C@H](CCCCN)NC(=O)[C@H](CC(C)C)NC(=O)[C@@H](NC(=O)[C@H](CCCCN)NC(=O)[C@@H](NC(=O)[C@@H](NC(=O)[C@H](CCC(N)=O)NC(=O)[C@H](CC(N)=O)NC(=O)[C@@H](NC(=O)[C@@H](NC(=O)[C@H](CC(=O)O)NC(=O)[C@H](CO)NC(=O)[C@@H](N)CCSC)[C@@H](C)CC)[C@@H](C)CC)[C@@H](C)CC)C(C)C)C(C)C)C(=O)N[C@@H](CC(=O)O)C(=O)N[C@@H](CCCCN)C(=O)N[C@@H](CC(C)C)C(=O)N[C@H](C(=O)N[C@@H](CCCCN)C(=O)N[C@@H](CCCCN)C(=O)O)[C@@H](C)O | Bifidobacterium adolescentis | broth microdilution | DSM 108263 | – | 5.01 µM
CC1(C)SC2C(NC(=O)C(NC(=O)C3=C(O)C(Cc4ccccc4)NC3=O)c3ccccc3)C(=O)N2C1C(=O)O (stereo not shown) | Escherichia coli | broth microdilution | Keio mutant JW0146-2 | 18 h, ferric hydroxamate uptake gene | 12.5 µg/mL
CCCCCC/C=C\CCCCCCCCCC(=O)CP(=O)(O)O | Streptococcus pneumoniae | – | – | – | 200 µg/mL
CC[C@H](C)C[C@H](C)CCCCCCCCC(=O)N[C@H]1C[C@@H](O)[C@@H](NCCN)NC(=O)[C@@H]2[C@@H](O)CCN2C(=O)[C@H]([C@H](O)CCN)NC(=O)[C@H]([C@H](O)[C@@H](O)c2ccc(O)cc2)NC(=O)[C@@H]2C[C@@H](O)CN2C(=O)[C@H]([C@@H](C)O)NC1=O | Candida glabrata | EUCAST broth microdilution | clinical isolate, RPMI 1640 MOPS-buffered 2% glucose | 48 h, pH 7.0, 24 °C | 0.125 µg/mL
